Experimental data from different studies.
Lines come from different studies, so protocols differ. Values joined by “and” are separate records of one study, mostly repeats; a detail may differ. Numbers after ± are the reported error.
Sequence of UniProt P08183 (whole entry, looked up): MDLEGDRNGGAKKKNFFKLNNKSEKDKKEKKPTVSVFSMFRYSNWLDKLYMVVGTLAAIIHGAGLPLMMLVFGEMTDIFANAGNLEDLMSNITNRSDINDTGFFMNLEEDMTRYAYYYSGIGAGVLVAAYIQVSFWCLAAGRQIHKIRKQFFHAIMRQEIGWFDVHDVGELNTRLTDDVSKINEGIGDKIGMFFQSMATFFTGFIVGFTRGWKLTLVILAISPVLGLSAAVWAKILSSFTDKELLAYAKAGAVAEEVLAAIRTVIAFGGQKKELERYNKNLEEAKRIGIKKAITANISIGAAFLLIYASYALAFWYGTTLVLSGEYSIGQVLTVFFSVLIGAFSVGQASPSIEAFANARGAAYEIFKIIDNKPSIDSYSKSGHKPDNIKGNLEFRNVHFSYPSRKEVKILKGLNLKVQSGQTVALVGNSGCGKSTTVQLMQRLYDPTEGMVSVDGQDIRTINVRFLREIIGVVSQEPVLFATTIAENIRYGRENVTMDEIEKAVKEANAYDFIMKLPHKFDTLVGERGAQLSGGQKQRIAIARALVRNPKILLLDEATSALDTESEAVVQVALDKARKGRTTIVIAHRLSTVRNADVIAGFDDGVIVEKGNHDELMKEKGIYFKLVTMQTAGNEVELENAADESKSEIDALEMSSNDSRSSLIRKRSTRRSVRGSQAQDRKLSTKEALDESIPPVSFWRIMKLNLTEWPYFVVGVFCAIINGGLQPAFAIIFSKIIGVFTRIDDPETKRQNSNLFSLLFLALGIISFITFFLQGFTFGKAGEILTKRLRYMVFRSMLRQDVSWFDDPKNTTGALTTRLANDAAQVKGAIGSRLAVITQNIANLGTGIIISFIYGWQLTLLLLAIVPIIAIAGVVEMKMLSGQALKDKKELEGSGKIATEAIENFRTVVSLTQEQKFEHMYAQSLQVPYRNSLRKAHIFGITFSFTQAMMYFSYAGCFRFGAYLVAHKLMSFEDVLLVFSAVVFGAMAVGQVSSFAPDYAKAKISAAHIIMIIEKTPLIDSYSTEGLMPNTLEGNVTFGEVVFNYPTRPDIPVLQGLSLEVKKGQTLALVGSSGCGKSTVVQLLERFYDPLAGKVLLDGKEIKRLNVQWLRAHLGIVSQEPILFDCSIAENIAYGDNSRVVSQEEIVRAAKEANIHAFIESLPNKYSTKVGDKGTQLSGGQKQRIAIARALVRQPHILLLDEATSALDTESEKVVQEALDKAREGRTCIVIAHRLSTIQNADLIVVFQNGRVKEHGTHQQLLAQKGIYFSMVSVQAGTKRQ

CC1(C)S[C@@H]2[C@H](NC(=O)[C@H](N)c3ccc(O)cc3)C(=O)N2[C@H]1C(=O)O — mean blood pressure (male Hartley guinea pigs, anaesthetized; intravenous, 3 mg/kg group, baseline before infusion): 38 ± 0.2 mmHg
CCC(CC)C(=O)Oc1cccc(C(O)CCN)c1.O=CO (stereo not shown) — ERG b-wave amplitude (scotopic ERG; BALB/cJ mice; intraperitoneal, 10 mg/kg, 1 h dark adaptation, together with: 10,000 lx photobleach, 10 min): 12 µV and 37 µV and 21 µV and 63 µV and 31 µV
COc1c(O)cc(C(=O)O)cc1O — C0 (LC-MS/MS; male Ross broilers, serum; intravenous, 0.49 mg/kg gallic acid): 230 nM
Cc1ccc(C(=O)Nc2ccnc(S(N)(=O)=O)c2)c(N2CCCC(F)(F)CC2)n1 — unbound plasma concentration (rhesus monkey, plasma; intravenous, dose not given, 90 min): 189 ± 26.6 nM
COc1ccc(C[C@@H](C)[C@@H](C)Cc2ccc(OC)c(OC)c2)cc1OC — Cmax (beagle dog male, plasma; oral, 300 mg/kg/day, day 28): 1850 ± 444 ng/mL
O=C(COc1ccc(Cl)cc1)NC12CC(c3nnc([C@H]4C[C@@H](OC(F)(F)F)C4)o3)(C1)C2 — participants maximum mild TEAE (human both sexes; oral, 260 mg once daily, 14 days): 71.4%
N#C[C@@]1(c2ccc3c(N)ncnn23)O[C@H](CO)[C@@H](O)[C@H]1O — AUMC(0-inf) (male beagle dogs, plasma; oral capsule, 6.5 mg/kg): 80700 ng·h²/mL
N#Cc1ccc(-c2cnc3ccc(-c4ccc(C(=O)N5CCOCC5)cc4)cn23)cc1 — placebo-corrected change from baseline (refers to: QRS interval; healthy volunteers; oral, 10 mg, fed, time-averaged): -1.2 ms
O=C1NCCc2nc(OCc3cccc(F)c3)ccc21 — Irwin test score (refers to: tail erection; Sprague-Dawley rat male; oral, 100 mg/kg, 4 h; direction not given): 0
CCc1cc(C(=O)NC)c2nccc(N3CCc4c(cc(Cn5ccnc5)cc4-c4cn(C)nc4C(F)(F)F)C3=O)c2c1 — serum cholesterol (Sprague Dawley rats; oral, 50 mg/kg once daily, 7 days): 2.3 ± 0.17 mmol/L
N#Cc1ccc2c(c1)[C@H]1CCCN(C(=O)c3ccc4[nH]cnc4c3)[C@H]1C2 — androstenedione level (human, female; 160 mg, day 15): 10.5 nmol/L
Cc1ccc([C@@H]2O[C@H](CO)[C@@H](O)[C@H](O)[C@H]2O)cc1Cc1ccc(-c2ccc(F)cc2)s1 — urinary potassium excretion change (Japanese type 2 diabetes patients; 200 mg, day 5, 24 h urine collection; reference: baseline): 0.399 mEq
CCN(CC)/C(N)=N\c1ccc(NC(=O)c2ccc(C(=O)Nc3ccc(/N=C(\N)N(CC)CC)cc3)cc2)cc1 — maximum haemolysis (sheep erythrocytes; 1 h, pH 7.5): 1.9%
C[C@H]1[C@H](OC(=O)CCC(=O)O)O[C@@H]2O[C@@]3(C)CC[C@H]4[C@H](C)CC[C@@H]1[C@@]24OO3 — maximum tolerated dose (NSG mouse, ML-2 xenograft; oral, 5 days, twice daily): 120 mg/kg
Cl.[2H]C([2H])([2H])CC(=O)c1cnc(NC(=O)C2CC2)cc1Nc1cccc(-c2ncn(C([2H])([2H])[2H])n2)c1OC — half-life (human, fasted, multiple dose; oral, 40 mg twice daily, tablet, day 14, geometric mean): 12.4 h
CCN1CCN(Cc2ccc(NC(=O)c3ccc(C)c(NC(=O)c4cncc(-c5cccs5)c4)c3)cc2C(F)(F)F)CC1 — mean plasma concentration (LC-MS/MS; C57BL/6 mouse, plasma; intraperitoneal, 30 mg/kg single dose, 0.25 h): 680 ng/mL
COC(=O)CNC(=O)c1nc(Cl)c2ccccc2c1O — pKa (basic): < 2
COc1ccnc(CNC(=O)c2cn(Cc3ccc(Cn4ccccc4=O)cc3)nc2C(F)(F)F)c1F — plasma clearance (rat, Sprague-Dawley, male, plasma; intravenous, 1 mg/kg): 7.07 mL/min/kg
CCN1CCN(Cc2ccc(Nc3ncc(F)c(-c4cc(F)c5nc6n(c5c4)[C@H](C)CCC6)n3)nc2)CC1 — Tmax (human, Phase Ib patients, plasma; 300 mg, multiple doses, median, together with: fulvestrant): 4.94 h
CC(C)(C)c1ccc(C(O)CCCN2CCC(C(O)(c3ccccc3)c3ccccc3)CC2)cc1 (stereo not shown) — mean blood pressure (male Hartley guinea pigs, anaesthetized; intravenous, 1 mg/kg over 10 min, after infusion): 41 ± 0.2 mmHg
CNCc1ccc(-c2[nH]c3cc(F)cc4c3c2CCNC4=O)cc1 — constipation incidence (patients; oral, 840 mg twice daily, all grades): 0%
Oc1ccc(Cl)c2cccnc12 — pKa (basic): 4.1
COc1ncc(-c2nc3c(n2C(C)C)[C@H](c2ccc(Cl)cc2)N(c2cc(Cl)cn(C)c2=O)C3=O)c(OC)n1 — AUC(0-t) geometric mean (human patients, plasma; oral, 12.5 mg, 0-24 h, high-dose arm, cycle 2 day 1): 1360 ng·h/mL
O=C(Nc1nc2cccc(-c3ccc(CN4CCS(=O)(=O)CC4)cc3)n2n1)C1CC1 — treatment-emergent adverse events (refers to: vertigo; rheumatoid arthritis patients; oral, 75 mg once daily, 4 weeks, any relatedness): 0%
Cc1cc(NC(=O)c2cccc(NC(=O)/C=C/CN(C)C)c2)ccc1Nc1nccc(-c2cccnc2)n1 — remaining compound (primary hepatocytes, rat Wistar male; 1 µM, 30 min): 76.9%
Cc1ccc(C(=O)N(CCCN)C(c2nc3snc(C)c3c(=O)n2Cc2ccccc2)C(C)C)cc1 (stereo not shown) — grade ≥3 hypokalemia patients (human patients; intravenous, 2 mg/day): 0%
CC(C)(C(=O)N1CCOc2c(C#N)cncc2C1)C(F)F — subjects with TEAE (refers to: gingival bleeding; human, both sexes; oral, 15 mg twice daily, 14 days, multiple ascending dose): 0%
CCn1cc(C(=O)N2CCOCC2)c(=O)c2cc(NC3Cc4ccccc4C3)cnc21 — half-life (human, fed; oral suspension, 300 mg single dose, arithmetic mean): 3.87 h
COc1c(N2C[C@@H]3CCCN[C@@H]3C2)c(F)cc2c(=O)c(C(=O)O)cn(C3CC3)c12 — mean blood pressure (male Hartley guinea pigs, anaesthetized; intravenous, 1 mg/kg group, baseline before infusion): 37 ± 0.3 mmHg
O=C(O)CCC(=O)O.[2H]C([2H])([2H])Oc1cc(C)c2[nH]ccc2c1CN1CC[C@@H](C2CC2)C[C@H]1c1ccc(C(=O)O)cc1 — subjects with TEAE Eczema (multiple ascending dose; healthy Chinese subjects; 100 mg twice daily): 12.5%
Cc1c(-c2ccc(N3CCc4cccc(C(=O)Nc5nc6ccccc6s5)c4C3)nc2C(=O)O)cnn1CC12CC3(C)CC(C)(C1)CC(OCCNCC[C@H](O)CO)(C3)C2 — QTcV interval change (beagle dog, male, anaesthetised; intravenous infusion, 0.3 mg/kg/min, 45 min; reference: vehicle): 14 ms
CC(C)c1nc(N(C)S(C)(=O)=O)nc(-c2ccc(F)cc2)c1/C=C/[C@@H](O)C[C@@H](O)CC(=O)O — plasma concentration (Wistar albino rat, both sexes, plasma; oral, 20 mg/kg, 0.5 h): 513 ng/mL
C[C@H]1CN(C(=O)CC#N)[C@]12CCN(c1ncnc3[nH]ccc13)C2 — subjects with Dizziness (healthy human; oral, 1.5 mg, single dose): 12.5%
N[C@@H](C[18F])C(=O)O — maximum tumour uptake (PET; female athymic nude mouse, U-87 MG tumour; intravenous, 15 min): 2 to 3 %ID/cc
CCC(=O)NCC[C@@H]1CCc2cc(O)c3c(c21)CCO3 — specific activity (sulfation, substrate; pooled human liver cytosol; 50 µM, 30 min, together with: 50 mM NaF): 13.4 ± 0.81 pmol/min/mg
Cn1c(C(F)(F)F)cc(=O)n(-c2cc(Oc3cccnc3OCC(=O)O)c(Cl)cc2F)c1=O — Tmax (beagle dog, male, plasma; oral capsule, 1000 mg/kg/day epyrifenacil, week 13, 90-day study): 5 h
COC(=O)Nc1ccc2nc(C(=N)N)ccc2c1 — pKa: 10.1
CCOc1c([C@H](C)n2nc(C)c3c(N)ncnc32)cc(Cl)c(F)c1[C@@H]1CNC(=O)C1 — ECG observations (refers to: QTcF change above 60 ms; previously treated B-cell malignancy; oral, 15 mg once daily, baseline QTcF ≤450 ms; reference: baseline): 0%
Cc1noc(C)c1-c1cc(C(O)(c2ccccn2)c2ccccn2)c2nc(C3CC3)[nH]c2c1 — Ctau (human patients, fasted, plasma; oral, 6 mg once daily, cycle 1 day 15, together with: enzalutamide once daily): 3.9 ng/mL
CCN1/C(=C/C(C)=O)Sc2ccc(F)cc21 — QTc interval (Bazett) (cynomolgus monkey; oral, 10 mg/kg, 6 h post-dose): 330 ± 11 ms
O=C(OC(C(F)(F)F)C(F)(F)F)N1CCN(Cc2cccc(Oc3ccccc3)c2)CC1 — k2 (PET blocking study; rhesus monkey, brain FCX; 0.1 mg/kg, compound pretreatment, together with: [18F]T-401 tracer): 0.052 min⁻¹
CNC(=O)c1ccc(-c2cnc3ncc(Cc4ccc5ncccc5c4)n3n2)cc1F — unbound fraction (ultrafiltration; human, plasma; oral, 200 mg, 3 h post-dose, mean): 0.0335
CNC(=O)c1ccc(-c2cnc3ncc(Cc4ccc5ncccc5c4)n3n2)cc1F — bilirubin increase incidence (all grades) (CTCAE v4.0, any causality; human cancer patients; oral, dose not given, dose escalation): 18%
Cc1cc(Nc2cc3ncccc3c(N[C@@H]3C[C@H]4CC[C@@H](C3)N4CCC#N)n2)n[nH]1 — papular rash incidence (healthy human subjects; oral, 300 mg, 2 weeks, single ascending dose): 0%
CC1(C)CCC(CN2CCN(c3ccc(C(=O)NS(=O)(=O)c4ccc(NCC5CCOCC5)c([N+](=O)[O-])c4)c(Oc4cnc5[nH]ccc5c4)c3)CC2)=C(c2ccc(Cl)cc2)C1 — C6 fold change (patients; oral, dose not given, 6 h, together with: triazole antifungals; reference: without triazoles): 1
OC(CCN1CCCCC1)(c1ccccc1)C1CC2C=CC1C2 (stereo not shown) — EC90 (Toxoplasma gondii; parasite growth; HFF, bradyzoite, glutamine-induced): 157 µM
Cc1nc(-c2ccc(OCC(C)C)c(C#N)c2)sc1C(=O)O — body weight (KM mouse, chronic hyperuricaemia model; dose not given, day 11): 33.6 g and 36.2 g and 30 g and 29.8 g and 29 g and 32.6 g
Cc1cc(NC2CCN(C(=O)OC3CCN(C(=O)/C=C/CN(C)C)C3)CC2)n2ncc(C(C)C)c2n1 (stereo not shown) — patients with TEAE (CTCAE v4.0, refers to: Hypotension; patients with advanced solid tumours; oral, dose not given, TIW, grade 3 or higher): 0%
Cc1ccc(Sc2ccccc2N2CCNCC2)c(C)c1 — vomiting incidence (healthy adult men; oral, 20 mg single dose, treatment-emergent adverse events): 0%
Cn1cc(Nc2nccc(-c3ccc4c(c3)CN(C3COC3)CC[C@H]4NC(=O)c3cn(C(C)(C)C)nn3)n2)cn1 — CD8+ T cell count change (human, whole blood; 300 mg twice daily, day 7; reference: pre-dose baseline): -1.95%
CC[C@H]1[C@@H](O)[C@@H]2[C@H](CC[C@]3(C)[C@@H]([C@H](C)CCNC(=O)NS(=O)(=O)c4ccc(C(C)(C)C)cc4)CC[C@@H]23)[C@@]2(C)CC[C@@H](O)C[C@@H]12 — AUC(0-inf) mean (ATP-dependent translocase ABCB1 (ABCB1, Homo sapiens, UniProt P08183); substrate; human, plasma; dose not given, together with: quinidine): 388 ng·h/mL
COCc1cc(C(=O)Nc2cc([C@H]3CC[C@@H](OC(=O)NC(C)C)C3)[nH]n2)n(C)n1 — unbound C24h (OVCAR-3 xenograft, NOD/SCID gamma mice, plasma; oral, 50 twice daily, PK/PD study): 57 nM
CC(C)NCCCC[C@@H]1NC(=O)[C@H](Cc2ccc(O)cc2)NC(=O)[C@H](Cc2ccccc2)NC(=O)CC[C@H](C(=O)N[C@@H](CCCCNC(C)C)C(=O)N[C@@H](CCCCNC(=O)[C@H](CCC(=O)O)NC(=O)[C@H](CCC(=O)O)NC(=O)[C@H](CCC(=O)O)NC(=O)CN2CCN(CC(=O)O)CCN(CC(=O)O)CCN(CC(=O)O)CC2)C(N)=O)NC(=O)CNC(=O)[C@H](Cc2ccc3ccccc3c2)NC(=O)[C@@H](CCCNC(=N)N)NC1=O [gallium-68 labelled] — tissue uptake (mouse with Daudi xenograft, intestine; intravenous, 1 h): 0.2 %ID/g
C#Cc1cccc(Nc2ncnc3cc(OCCOC)c(OCCOC)cc23)c1 — viability (HPrEC normal prostate epithelial cells; MTT; 6.3 µg/mL, 2% serum): 62.4%
CNc1ccc(-c2nc3ccc(O)cc3s2)cc1 [carbon-11 labelled] — SUV (ex vivo biodistribution; B6SJL mouse, normal, spleen; intravenous, 30 min): 0.464 ± 0.057
NC(=O)N1c2ccccc2C=Cc2ccccc21 — adverse events incidence (refers to: muscle twitching; human male; oral, dose not given, AEs, treatment-related, on drug, CTCAE): 7%
CC(C)[N+](C)(CCOC(=O)C1c2ccccc2Oc2ccccc21)C(C)C — remaining compound (human, both sexes, whole blood; 5 µM, 30 min): 58.8%
CCCCc1oc2ccccc2c1C(=O)c1cc(I)c(OCCN(CC)CC)c(I)c1 — mean blood pressure (male Hartley guinea pigs, anaesthetized; intravenous, 5 mg/kg over 10 min, after infusion): 35 ± 0.2 mmHg
